# Results gathered from unrelated publications.
# Every numbered part comes from another study and shows a few of its results, in no order. Positions count from the first letter of the parent shown.

# Series 1
# Target: CCNA1, cyclin fold, Cln2 fusion (human)
# Method: yeast growth competition, sequencing
# Sample: yeast
# Notes: strong parent motif
# Reference: not given
# Direction: higher = stronger binding
# Starting sequence: viral docking peptide; YKVKRRLVFGADD
Substitution,normalised enrichment score
V8Y,1.3
R5S,0.127
G10S,1.07
K4N,0.817
G10I,1.04
R5A,0.336
A11C,1.17
R5F,-0.0435
R6D,0.131
K4Q,1.1
L7E,0.0904
L7G,0.154
V8G,0.325
G10R,1.42
V3T,1.11
V8E,1.89
K4Y,0.671

# Series 2
# Target: HLA class I histocompatibility antigen, A alpha chain, allele A*25:01 (Homo sapiens, UniProt P04439)
# Effect on: peptide-MHC binding
# Form: peptide
# Tested at: concentration not given
Molecule,binding
LRYGNVLDV,inactive
MVAKYDLLV,inactive
EGFDPRALI,inactive
KVSVGSYFC,inactive
KPKHLYVSM,inactive
KMKDPKMYH,inactive
WTDLFDNKV,inactive
RTWFYRTEF,inactive

# Series 3
# Target: UBE2A UBC core domain (UniProt P49459)
# Chain of UniProt P49459 (whole entry, looked up): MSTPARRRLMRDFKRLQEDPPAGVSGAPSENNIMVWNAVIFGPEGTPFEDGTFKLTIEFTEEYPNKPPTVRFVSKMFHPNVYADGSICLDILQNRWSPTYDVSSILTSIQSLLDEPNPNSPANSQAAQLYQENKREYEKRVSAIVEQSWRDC
# Method: yeast two-hybrid
# Sample: yeast
# Notes: mostly zero background
# Reference: not given
# Direction: higher = stronger interaction
# B1: UBE4B RING domain (UniProt O95155); chain KNARAEIDYSDAPDEFRDPLMDTLMTDPVRLPSGTIMDRSIILRHLLNSPTDPFNRQTLTESMLEPVPELKEQIQAWMREKQNSDH
# B2: MDM2 RING domain (UniProt Q00987); chain TQDKEESVESSLPLNAIEPCVICQGRPKNGCIVHGKTGHLMACFTCAKKLKKRNKPCPVCRQPIQMIVLTYFP
# B3: SHPRH RING domain (UniProt Q149N8); chain KTSGGVNPEPCPICARQLGKQWAVLTCGHCFCNECISIIIEQYSVGSHRSSIKCAICRQTTSHKEISY
# B4: RNF17 RING domain (UniProt Q9BXT8); chain SQPWGAAEIQCTRCGRRVSRSSGHHCELQCGHAFCELCLLMTEECTTIICPDCEVATAVNTRQR
# B5: NHLRC1 RING domain (UniProt Q6VVB1); chain MREAEISLLECKVCFEKFGHRQQRRPRNLSCGHVVCLACVAALAHPRTLALECPFCRRACRGCDTSD
# B6: TRIM74 RING domain (UniProt Q86UV6); chain SLLELEDWLQCPICLEVFKESLMLQCGHSYCKGCLVSLSYHLDTKVRCPMCWQVVDGSSSLP
# B7: TRIM68 RING domain (UniProt Q6AZZ1); chain LVEAIVEEVACPICMTFLREPMSIDCGHSFCHSCLSGLWEIPGESQNWGYTCPLCRAPVQPRNLRP
# B8: RNF10 RING domain (UniProt Q8N5U6); chain VRICSHEVPSCPICLYPPTAAKITRCGHIFCWACILHYLSLSEKTWSKCPICYSSVHKKDLKS
# B9: RNF32 RING domain (UniProt Q9H0A6); chain VQALRRETHECSICLAPLSAAGGQRVGAGRRSREMALLSCSHVFHHACLLALEEFSVGDRPPFHACPLCRSCYQKKILEC
# B10: CBLL1 RING domain (UniProt Q75N03); chain GEKDDTPVHFCDKCGLPIKIYGRMIPCKHVFCYDCAILHEKKGDKMCPGCSDPVQRIEQCT
# B11: TRIM32 RING domain (UniProt Q13049); chain NLDALREVLECPICMESFTEEQLRPKLLHCGHTICRQCLEKLLASSINGVRCPFCSKITRITSLTQ
Molecule,lacZ reporter activity
VPADASPDSKCPICLDRFDNVSYLDRCLHKFCFRCVQEWSKNKAECPLCKQPFDSIFHSV (TOPORS RING domain (UniProt Q9NS56)),0
B1 (UBE4B RING domain),0
SNNDLASLFECPVCFDYVLPPILQCQSGHLVCSNCRPKLTCCPTCRGPLGSIRNLA (SIAH1 RING domain (UniProt Q8IUQ4)),0
B2 (MDM2 RING domain),0
B3 (SHPRH RING domain),0
B4 (RNF17 RING domain),0
B5 (NHLRC1 RING domain),0
B6 (TRIM74 RING domain),0
B7 (TRIM68 RING domain),0
B8 (RNF10 RING domain),0
B9 (RNF32 RING domain),0
B10 (CBLL1 RING domain),0
MEEMEEELKCPVCGSFYREPIILPCSHNLCQACARNILVQTPESESPQSHRAAGSGVSDY (TRIM9 RING domain (UniProt Q9C026)),0
B11 (TRIM32 RING domain),0

# Series 4
# Target: JUND, bZIP domain (human)
# Method: DHFR protein complementation
# Sample: yeast
# Notes: single substitutions, most at no-binding floor
# Reference: wild-type JUN-FOS pair
# Direction: higher = stronger binding
# Starting sequence: JUN, bZIP domain (human); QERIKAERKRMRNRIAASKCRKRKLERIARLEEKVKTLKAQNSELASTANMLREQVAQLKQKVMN
Substitution,binding fitness
A49D,-1.44 natural log
R53W,-1.31 natural log
V35Q,-1.37 natural log
L45S,-1.39 natural log
A49M,-1.25 natural log
L59H,-1.45 natural log
R53P,-1.35 natural log
V56N,-1.49 natural log

# Some of these lines once more (series 1):
Substitution,normalised enrichment score
R6D,0.131
K4Q,1.1
L7E,0.0904
L7G,0.154
V8G,0.325
G10R,1.42
V3T,1.11
